Assay results from different studies.
Parts stem from different laboratories: compare values within a part only.
Sequence of UniProt Q8X1D8 (whole entry, looked up): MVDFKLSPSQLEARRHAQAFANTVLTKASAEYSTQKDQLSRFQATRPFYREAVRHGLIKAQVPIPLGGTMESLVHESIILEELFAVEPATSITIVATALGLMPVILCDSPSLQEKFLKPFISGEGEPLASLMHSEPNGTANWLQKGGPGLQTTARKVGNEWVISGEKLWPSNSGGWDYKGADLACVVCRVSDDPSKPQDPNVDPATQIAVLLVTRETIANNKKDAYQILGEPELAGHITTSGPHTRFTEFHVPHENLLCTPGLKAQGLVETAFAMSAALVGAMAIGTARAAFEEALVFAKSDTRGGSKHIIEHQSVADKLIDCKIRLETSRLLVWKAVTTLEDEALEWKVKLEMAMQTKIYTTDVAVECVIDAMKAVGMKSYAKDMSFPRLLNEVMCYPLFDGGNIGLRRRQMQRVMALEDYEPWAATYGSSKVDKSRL

Block 1 — observed: ion current; action: positive modulator; technique: two-electrode voltage clamp; form: peptide; cell line: Xenopus oocytes; concentration: 30 µM; setting: -70 mV holding; with: glycine EC5-10
Target: Glycine receptor (alpha-1/beta) (Homo sapiens, UniProt P23415+P48167)
Sequence of UniProt P23415 (whole entry, looked up): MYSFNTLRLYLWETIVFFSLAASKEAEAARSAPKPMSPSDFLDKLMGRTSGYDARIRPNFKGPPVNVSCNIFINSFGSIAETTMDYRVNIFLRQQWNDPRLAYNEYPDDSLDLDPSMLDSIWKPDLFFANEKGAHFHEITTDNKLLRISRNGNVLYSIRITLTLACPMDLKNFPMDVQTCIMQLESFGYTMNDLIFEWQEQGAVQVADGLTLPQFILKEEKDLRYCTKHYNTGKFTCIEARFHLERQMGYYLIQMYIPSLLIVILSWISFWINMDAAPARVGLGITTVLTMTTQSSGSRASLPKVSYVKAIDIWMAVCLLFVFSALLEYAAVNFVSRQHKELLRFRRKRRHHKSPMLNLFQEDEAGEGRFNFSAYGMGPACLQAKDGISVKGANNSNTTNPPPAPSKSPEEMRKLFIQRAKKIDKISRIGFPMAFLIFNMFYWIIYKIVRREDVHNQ
Sequence of UniProt P48167 (whole entry, looked up): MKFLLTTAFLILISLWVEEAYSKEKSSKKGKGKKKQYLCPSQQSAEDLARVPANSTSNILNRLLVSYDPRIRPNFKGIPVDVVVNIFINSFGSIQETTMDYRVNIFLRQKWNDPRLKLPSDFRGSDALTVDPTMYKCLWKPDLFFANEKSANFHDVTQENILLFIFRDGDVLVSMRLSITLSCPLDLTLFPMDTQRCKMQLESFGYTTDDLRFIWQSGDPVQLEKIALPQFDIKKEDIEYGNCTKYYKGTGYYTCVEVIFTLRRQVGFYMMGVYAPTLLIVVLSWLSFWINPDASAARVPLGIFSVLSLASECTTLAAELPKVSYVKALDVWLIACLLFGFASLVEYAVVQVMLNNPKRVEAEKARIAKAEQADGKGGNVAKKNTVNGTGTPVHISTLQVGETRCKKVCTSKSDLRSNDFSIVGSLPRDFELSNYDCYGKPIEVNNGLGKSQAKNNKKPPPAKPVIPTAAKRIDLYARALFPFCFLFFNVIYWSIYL
For `AAPTVPR`, the potentiation was 19.1%.
The potentiation of `NQLPLHA` is reported as < 20%.
The potentiation of `STFTKSP` is reported as < 20%.

Mixed results
`fin fragment (Bacillus subtilis) (sequence not shown)`: binding “binds” (rpoC fragment (Bacillus subtilis); NMR titration).
`nitroalkane oxidase (Fusarium oxysporum, UniProt Q8X1D8)` gave a Km of 30 µM (CCCCCCCC[N+](=O)[O-]; steady-state kinetics; pH 8, 30 °C, with: O2).
`enzyme (Agrobacterium tumefaciens, UniProt A0A2I4PGZ0)` gave a Km of 2810 µM (OCc1ccccc1O[C@@H]1O[C@H](CO)[C@@H](O)[C@H](O)[C@H]1O; steady-state kinetics; pH 7, 37 °C).
